Assay results pooled from the literature.
Numbered parts are unrelated; each lists some results of a single study.

Sample 1 — technique: universal PBM; molecule type: double-stranded DNA, one strand shown; matrix: in vitro; tested at: 600 nM; direction: higher = stronger binding
Target: Sal-like protein 4, full length isoform A (SALL4, Homo sapiens, UniProt Q9UJQ4, residues 1-1053)
Chain of UniProt Q9UJQ4 (whole entry, looked up): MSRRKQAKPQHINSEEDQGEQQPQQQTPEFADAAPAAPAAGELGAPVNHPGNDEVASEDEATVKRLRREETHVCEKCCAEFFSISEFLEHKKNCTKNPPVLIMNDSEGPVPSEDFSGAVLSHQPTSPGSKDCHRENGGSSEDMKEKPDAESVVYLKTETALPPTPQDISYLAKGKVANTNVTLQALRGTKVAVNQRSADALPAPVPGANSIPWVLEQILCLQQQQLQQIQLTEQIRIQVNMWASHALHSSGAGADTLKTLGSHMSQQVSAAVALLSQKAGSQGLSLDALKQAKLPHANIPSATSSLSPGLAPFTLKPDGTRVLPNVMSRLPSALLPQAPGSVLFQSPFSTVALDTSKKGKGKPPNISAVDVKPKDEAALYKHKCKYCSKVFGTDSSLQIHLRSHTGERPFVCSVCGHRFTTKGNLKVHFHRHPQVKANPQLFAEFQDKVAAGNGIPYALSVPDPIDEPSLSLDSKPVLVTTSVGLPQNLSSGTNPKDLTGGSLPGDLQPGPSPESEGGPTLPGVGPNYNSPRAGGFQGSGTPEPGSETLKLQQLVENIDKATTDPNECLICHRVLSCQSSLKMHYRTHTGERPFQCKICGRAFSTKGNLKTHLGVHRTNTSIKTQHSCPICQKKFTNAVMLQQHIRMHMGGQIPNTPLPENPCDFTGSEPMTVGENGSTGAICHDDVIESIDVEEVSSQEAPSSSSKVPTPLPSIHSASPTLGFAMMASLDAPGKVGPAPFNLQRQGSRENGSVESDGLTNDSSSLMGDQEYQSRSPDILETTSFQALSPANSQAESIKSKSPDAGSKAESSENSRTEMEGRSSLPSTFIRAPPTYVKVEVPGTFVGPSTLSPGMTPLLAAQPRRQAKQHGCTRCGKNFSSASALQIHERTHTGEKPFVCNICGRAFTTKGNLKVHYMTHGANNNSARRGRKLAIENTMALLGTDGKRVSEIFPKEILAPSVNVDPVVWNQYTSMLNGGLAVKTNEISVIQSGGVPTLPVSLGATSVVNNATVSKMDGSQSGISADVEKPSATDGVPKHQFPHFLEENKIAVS
Notes: 8-mer, flanks averaged, mean of replicates
For `ACTTCGTA`, the E-score was 0.0216.
The E-score of `ACAATCGG` is reported as -0.0514.
The E-score of `TCTGTACA` is reported as 0.228.
`CTAATTAA` gave an E-score of 0.294.
`ACTGAGGA` has an E-score of -0.105.
With `CAAGCAAC` the E-score was 0.0601.

Sample 2 — technique: protein binding microarray; molecule type: double-stranded DNA, one strand shown; matrix: in vitro; tested at: not given; reference: not given; direction: higher = stronger binding
Target: Histone acetyltransferase KAT6A, winged helix 2, GST fusion (KAT6A, Homo sapiens, UniProt Q92794, residues 85-181)
Notes: 8-mer, flanks averaged, mean of 2 arrays, mostly near background
Construct (chain): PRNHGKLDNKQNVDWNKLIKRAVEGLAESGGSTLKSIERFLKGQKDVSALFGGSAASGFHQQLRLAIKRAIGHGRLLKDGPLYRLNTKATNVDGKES
The E-score of `ATCTCCAA` is reported as 0.135.
For `TCCATGAA`, the E-score was 0.00242.
With `AGTTCAAC` the E-score was -0.0431.
`TAGTATGA` gave an E-score of -0.101.
The E-score of `AGAACGCT` is reported as -0.0202.
For `ACCCCGGC`, the E-score was 0.0659.

Sample 3 — technique: protein-binding microarray; molecule type: double-stranded DNA, one strand shown; matrix: in vitro; tested at: 2200 nM top; notes: 60-bp whole probe; together with: salmon DNA 0.4 mg/ml; reference: random background probes; direction: higher = stronger binding; constant ends, left off below: GCCTAGCAC … GTCTTGATTCGCTTGACGCTGCTG
Target: Interferon regulatory factor 7, full length, phosphomimetic (IRF7, Homo sapiens, UniProt Q92985, residues 1-503, S471D/S472D/S475D/S476D/S477D/S483D/S484D/S487D)
Chain of UniProt Q92985 (whole entry, unmodified, looked up): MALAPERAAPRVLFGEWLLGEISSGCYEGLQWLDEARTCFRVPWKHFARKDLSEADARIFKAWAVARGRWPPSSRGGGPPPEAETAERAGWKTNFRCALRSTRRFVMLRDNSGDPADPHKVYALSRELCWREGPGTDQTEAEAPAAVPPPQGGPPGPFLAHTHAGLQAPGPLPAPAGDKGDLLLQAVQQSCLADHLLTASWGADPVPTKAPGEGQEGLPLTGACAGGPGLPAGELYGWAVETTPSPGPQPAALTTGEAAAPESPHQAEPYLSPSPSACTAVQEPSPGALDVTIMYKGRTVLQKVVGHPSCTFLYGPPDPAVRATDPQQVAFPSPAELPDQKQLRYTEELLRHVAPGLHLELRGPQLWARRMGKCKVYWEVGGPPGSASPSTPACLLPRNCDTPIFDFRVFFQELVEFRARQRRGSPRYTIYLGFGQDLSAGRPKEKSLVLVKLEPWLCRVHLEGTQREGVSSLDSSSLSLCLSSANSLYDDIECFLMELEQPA
`TCAAGGTTTTCTCTGGTACTGTGCTAG` — result for “fitted relative affinity”: 0.382 z-score.
For `GCCGGTATCGGTATCGGGACGTGCTAG`, “fitted relative affinity” read 0.607 z-score.
For `TTAGGTTTCGACAGTGGGTTAGTGCTA`, “fitted relative affinity” read 1.37 z-score.
Under “fitted relative affinity”, `TTAGATATCGGGACTGAATTAGTGCTA` is recorded as -0.333 z-score.
Under “fitted relative affinity”, `TTCTTTATGCACTCTCTACATGTGCTA` is recorded as 1.24 z-score.

Mixed results
For `PhoQ, residues 284 288 289 292 302 303 SSCLAV`, the fold induction was 8.53 (PhoP, residues 12 14 15 18 19 SQCLL (Escherichia coli, UniProt P23836); Sort-seq, item: YFP reporter; E. coli; PhoQ-PhoP variant library, together with: 10 µM Mg2+; reference: high Mg2+ state, higher = stronger signaling).
